Published values gathered from unrelated publications.
Every numbered part comes from another study and shows a few of its results, in no order.
Sequence of UniProt Q12866 (whole entry, looked up): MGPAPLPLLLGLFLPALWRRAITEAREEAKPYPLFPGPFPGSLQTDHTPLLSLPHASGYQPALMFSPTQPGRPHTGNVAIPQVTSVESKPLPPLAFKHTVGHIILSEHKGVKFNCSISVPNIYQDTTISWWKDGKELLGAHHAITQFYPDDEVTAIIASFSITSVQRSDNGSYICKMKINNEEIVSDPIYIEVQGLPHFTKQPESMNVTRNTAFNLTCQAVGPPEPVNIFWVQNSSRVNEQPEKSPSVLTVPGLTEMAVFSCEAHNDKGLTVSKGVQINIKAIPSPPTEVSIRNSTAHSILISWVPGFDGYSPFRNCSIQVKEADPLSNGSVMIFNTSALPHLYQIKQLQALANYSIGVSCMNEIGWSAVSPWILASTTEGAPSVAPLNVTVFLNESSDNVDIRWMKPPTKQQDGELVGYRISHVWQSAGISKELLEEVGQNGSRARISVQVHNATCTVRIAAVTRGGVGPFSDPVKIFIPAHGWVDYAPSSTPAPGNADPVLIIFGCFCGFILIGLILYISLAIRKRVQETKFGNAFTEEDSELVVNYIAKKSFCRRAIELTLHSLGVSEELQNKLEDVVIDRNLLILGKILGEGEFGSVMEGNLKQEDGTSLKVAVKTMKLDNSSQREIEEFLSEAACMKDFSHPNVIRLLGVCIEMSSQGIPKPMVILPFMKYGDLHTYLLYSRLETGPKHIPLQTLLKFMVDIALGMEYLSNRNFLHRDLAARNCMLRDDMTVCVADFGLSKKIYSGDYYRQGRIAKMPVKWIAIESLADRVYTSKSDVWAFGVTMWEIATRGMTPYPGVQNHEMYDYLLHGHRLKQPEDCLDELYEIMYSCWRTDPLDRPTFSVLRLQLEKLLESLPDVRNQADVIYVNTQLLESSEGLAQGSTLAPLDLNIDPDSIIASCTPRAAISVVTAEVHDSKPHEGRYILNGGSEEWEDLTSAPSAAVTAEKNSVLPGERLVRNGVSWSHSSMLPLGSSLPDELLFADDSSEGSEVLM
Sequence of UniProt Q9HC98 (whole entry, looked up): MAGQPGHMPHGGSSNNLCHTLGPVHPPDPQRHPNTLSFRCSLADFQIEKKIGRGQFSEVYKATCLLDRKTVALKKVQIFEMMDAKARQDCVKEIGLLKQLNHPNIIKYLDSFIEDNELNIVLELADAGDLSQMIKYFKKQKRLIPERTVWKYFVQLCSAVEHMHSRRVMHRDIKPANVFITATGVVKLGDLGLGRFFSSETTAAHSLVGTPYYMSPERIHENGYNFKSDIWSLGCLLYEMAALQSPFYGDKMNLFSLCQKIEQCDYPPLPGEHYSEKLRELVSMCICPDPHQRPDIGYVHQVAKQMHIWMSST
Sequence of UniProt Q13153 (whole entry, looked up): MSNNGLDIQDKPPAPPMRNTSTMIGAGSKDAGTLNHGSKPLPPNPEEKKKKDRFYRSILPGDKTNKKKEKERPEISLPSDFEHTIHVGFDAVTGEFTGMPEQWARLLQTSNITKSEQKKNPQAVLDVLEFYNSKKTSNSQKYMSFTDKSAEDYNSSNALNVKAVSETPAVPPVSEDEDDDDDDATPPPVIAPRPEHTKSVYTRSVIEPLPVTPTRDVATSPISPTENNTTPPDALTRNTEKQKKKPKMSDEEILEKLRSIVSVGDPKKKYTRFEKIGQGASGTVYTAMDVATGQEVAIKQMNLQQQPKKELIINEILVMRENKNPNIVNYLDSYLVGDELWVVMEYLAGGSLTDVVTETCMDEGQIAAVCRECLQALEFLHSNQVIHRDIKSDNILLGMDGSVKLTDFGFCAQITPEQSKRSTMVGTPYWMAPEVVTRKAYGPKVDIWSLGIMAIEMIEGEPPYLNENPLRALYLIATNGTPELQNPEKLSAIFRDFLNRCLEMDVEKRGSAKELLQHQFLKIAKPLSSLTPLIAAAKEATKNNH
Sequence of UniProt Q9HCP0 (whole entry, looked up): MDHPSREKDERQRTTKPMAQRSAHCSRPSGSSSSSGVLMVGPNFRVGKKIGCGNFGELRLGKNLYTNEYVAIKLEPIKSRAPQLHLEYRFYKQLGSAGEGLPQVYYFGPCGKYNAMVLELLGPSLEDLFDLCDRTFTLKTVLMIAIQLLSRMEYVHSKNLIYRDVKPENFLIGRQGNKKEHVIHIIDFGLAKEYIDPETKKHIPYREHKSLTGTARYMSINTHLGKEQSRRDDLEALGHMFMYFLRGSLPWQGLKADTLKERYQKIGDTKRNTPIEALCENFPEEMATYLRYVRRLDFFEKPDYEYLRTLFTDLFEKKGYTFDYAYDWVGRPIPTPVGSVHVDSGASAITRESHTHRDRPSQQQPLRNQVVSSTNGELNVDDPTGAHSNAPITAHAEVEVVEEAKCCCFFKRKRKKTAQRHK
Sequence of UniProt Q8N4C8 (whole entry, looked up): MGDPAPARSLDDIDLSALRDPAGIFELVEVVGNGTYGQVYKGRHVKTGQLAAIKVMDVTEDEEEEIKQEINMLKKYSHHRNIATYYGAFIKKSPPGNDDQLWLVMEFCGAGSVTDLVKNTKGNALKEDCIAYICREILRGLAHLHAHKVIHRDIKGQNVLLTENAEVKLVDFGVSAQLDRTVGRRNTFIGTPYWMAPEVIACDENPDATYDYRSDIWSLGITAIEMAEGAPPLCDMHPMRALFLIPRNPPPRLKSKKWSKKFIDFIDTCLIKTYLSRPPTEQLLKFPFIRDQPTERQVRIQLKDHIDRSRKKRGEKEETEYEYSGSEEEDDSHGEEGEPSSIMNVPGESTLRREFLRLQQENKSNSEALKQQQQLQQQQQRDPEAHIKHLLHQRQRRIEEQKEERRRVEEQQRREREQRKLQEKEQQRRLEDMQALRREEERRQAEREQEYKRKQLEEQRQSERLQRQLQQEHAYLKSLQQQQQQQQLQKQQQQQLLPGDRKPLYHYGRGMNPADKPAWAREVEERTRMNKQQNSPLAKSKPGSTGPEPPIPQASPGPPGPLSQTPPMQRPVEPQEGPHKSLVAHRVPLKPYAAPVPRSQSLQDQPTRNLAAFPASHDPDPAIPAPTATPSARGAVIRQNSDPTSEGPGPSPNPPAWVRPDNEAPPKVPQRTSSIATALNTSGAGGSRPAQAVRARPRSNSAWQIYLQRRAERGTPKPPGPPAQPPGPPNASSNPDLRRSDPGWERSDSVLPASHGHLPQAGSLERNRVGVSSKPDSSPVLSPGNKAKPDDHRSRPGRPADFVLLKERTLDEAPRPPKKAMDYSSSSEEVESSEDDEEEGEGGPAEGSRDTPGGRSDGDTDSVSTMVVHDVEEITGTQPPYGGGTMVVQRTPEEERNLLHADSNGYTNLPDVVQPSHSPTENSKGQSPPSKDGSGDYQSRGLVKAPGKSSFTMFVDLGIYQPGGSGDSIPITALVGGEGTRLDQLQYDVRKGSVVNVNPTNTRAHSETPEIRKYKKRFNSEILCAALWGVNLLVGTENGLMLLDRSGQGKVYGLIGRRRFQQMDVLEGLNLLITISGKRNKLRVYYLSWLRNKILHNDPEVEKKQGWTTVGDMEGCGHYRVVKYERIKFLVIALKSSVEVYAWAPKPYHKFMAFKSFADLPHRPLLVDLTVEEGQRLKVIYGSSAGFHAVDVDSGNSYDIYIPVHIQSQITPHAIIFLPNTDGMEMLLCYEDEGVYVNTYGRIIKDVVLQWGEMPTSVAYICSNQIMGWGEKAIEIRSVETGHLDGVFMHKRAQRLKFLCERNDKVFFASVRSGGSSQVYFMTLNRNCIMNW
Sequence of UniProt Q13705 (whole entry, looked up): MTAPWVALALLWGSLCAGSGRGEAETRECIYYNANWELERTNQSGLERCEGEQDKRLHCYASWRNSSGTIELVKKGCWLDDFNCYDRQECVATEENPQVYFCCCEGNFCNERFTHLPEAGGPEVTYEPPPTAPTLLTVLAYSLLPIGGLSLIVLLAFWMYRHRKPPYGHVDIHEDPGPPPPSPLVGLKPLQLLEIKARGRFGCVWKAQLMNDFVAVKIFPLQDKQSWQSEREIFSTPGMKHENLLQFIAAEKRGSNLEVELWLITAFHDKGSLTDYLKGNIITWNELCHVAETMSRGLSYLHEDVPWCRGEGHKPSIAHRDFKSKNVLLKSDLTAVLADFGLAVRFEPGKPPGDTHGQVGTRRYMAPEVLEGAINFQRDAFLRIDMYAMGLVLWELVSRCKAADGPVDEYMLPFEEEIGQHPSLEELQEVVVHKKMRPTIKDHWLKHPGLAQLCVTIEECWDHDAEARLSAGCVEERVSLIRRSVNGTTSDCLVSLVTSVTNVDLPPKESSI
Sequence of UniProt Q9Y6E0 (whole entry, looked up): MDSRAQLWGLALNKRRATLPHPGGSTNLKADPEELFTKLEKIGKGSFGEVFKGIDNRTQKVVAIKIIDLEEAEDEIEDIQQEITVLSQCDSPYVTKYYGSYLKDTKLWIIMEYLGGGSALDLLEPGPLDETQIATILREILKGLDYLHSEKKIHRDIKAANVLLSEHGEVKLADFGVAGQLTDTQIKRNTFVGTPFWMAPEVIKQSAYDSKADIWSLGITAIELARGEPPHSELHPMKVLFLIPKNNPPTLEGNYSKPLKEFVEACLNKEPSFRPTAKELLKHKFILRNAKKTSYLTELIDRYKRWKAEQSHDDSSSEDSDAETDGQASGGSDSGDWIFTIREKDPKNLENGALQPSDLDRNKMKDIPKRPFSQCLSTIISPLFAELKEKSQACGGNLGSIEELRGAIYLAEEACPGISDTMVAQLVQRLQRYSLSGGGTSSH

Series 1
SMILES: O=c1c(-c2ccc(F)cc2)c(-c2ccncc2)[nH]n1-c1ccc(Cl)cc1
Observed: enzyme activity
Mode: inhibitor
Concentration: 0.5 µM
Relative to: control
For Tyrosine-protein kinase FRK (FRK, Homo sapiens, UniProt P42685): remaining activity read 78.5%.
For Ribosomal protein S6 kinase alpha-2 (RPS6KA2, Homo sapiens, UniProt Q15349): remaining activity read 91.8%.
The remaining activity was 102% (Mitogen-activated protein kinase kinase kinase 14 (MAP3K14, Homo sapiens, UniProt Q99558)).
It gave 93.7% for remaining activity (Fibroblast growth factor receptor 1 (FGFR1, Homo sapiens, UniProt P11362)).
It gave 93.8% for remaining activity (Casein kinase I isoform gamma-2 (CSNK1G2, Homo sapiens, UniProt P78368)).
It gave 101% for remaining activity (Serine/threonine-protein kinase TAO2 (TAOK2, Homo sapiens, UniProt Q9UL54)).
For Fibroblast growth factor receptor 3 (FGFR3, Homo sapiens, UniProt P22607): remaining activity read 88.1%.
Macrophage-stimulating protein receptor (MST1R, Homo sapiens, UniProt Q04912) — remaining activity: 95%.
For Wee1-like protein kinase (WEE1, Homo sapiens, UniProt P30291): remaining activity read 81.6%.
For Angiopoietin-1 receptor (TEK, Homo sapiens, UniProt Q02763): remaining activity read 94.4%.
For Serine/threonine-protein kinase Nek1 (NEK1, Homo sapiens, UniProt Q96PY6): remaining activity read 78.7%.
For Mitogen-activated protein kinase kinase kinase 5 (MAP3K5, Homo sapiens, UniProt Q99683): remaining activity read 115%.
Serine/threonine-protein kinase Nek6 (NEK6, Homo sapiens, UniProt Q9HC98) — remaining activity: 106%.
For Glycogen synthase kinase-3 beta (GSK3B, Homo sapiens, UniProt P49841): remaining activity read 91.6%.
It gave 94.3% for remaining activity (Serine/threonine-protein kinase ULK3 (ULK3, Homo sapiens, UniProt Q6PHR2)).
It gave 112% for remaining activity (Serine/threonine-protein kinase TBK1 (TBK1, Homo sapiens, UniProt Q9UHD2)).
Activin receptor type-1B (ACVR1B, Homo sapiens, UniProt P36896) — remaining activity: 123%.
For Tyrosine-protein kinase Lck (LCK, Homo sapiens, UniProt P06239): remaining activity read 101%.
Tyrosine-protein kinase JAK3 (JAK3, Homo sapiens, UniProt P52333) — remaining activity: 106%.
For Mitogen-activated protein kinase 3 (MAPK3, Homo sapiens, UniProt P27361): remaining activity read 103%.
The remaining activity was 102% (Casein kinase I isoform gamma-3 (CSNK1G3, Homo sapiens, UniProt Q9Y6M4)).
MAP kinase-activated protein kinase 2 (MAPKAPK2, Homo sapiens, UniProt P49137) — remaining activity: 98.5%.
Dual specificity mitogen-activated protein kinase kinase 2 (MAP2K2, Homo sapiens, UniProt P36507) — remaining activity: 82.5%.
It gave 82.7% for remaining activity (Tyrosine-protein kinase Mer (MERTK, Homo sapiens, UniProt Q12866)).
The remaining activity was 84.4% (Ephrin type-A receptor 3 (EPHA3, Homo sapiens, UniProt P29320)).

Series 2
SMILES: CC(C)(O)c1cncc(-c2nc3ccc(F)cc3n2C2CC2)c1
Observed: cell-free assay
Method: competition with immobilised ligand
Concentration: 1 µM
For Activin receptor type-2B (ACVR2B, Homo sapiens, UniProt Q13705): remaining binding read 85%.
It gave 76% for remaining binding (Phosphatidylinositol 4-phosphate 5-kinase type-1 alpha (PIP5K1A, Homo sapiens, UniProt Q99755)).
It gave 100% for remaining binding (Mitogen-activated protein kinase 6 (MAPK6, Homo sapiens, UniProt Q16659)).
Serine/threonine-protein kinase 24 (STK24, Homo sapiens, UniProt Q9Y6E0) — remaining binding: 100%.
Phosphatidylinositol 4-kinase beta (PI4KB, Homo sapiens, UniProt Q9UBF8) — remaining binding: 100%.
For Ribosomal protein S6 kinase alpha-5, C-terminal kinase domain (RPS6KA5, Homo sapiens, UniProt O75582): remaining binding read 100%.
For Ephrin type-B receptor 6 (EPHB6, Homo sapiens, UniProt O15197): remaining binding read 100%.

Series 3
Target: Calcium/calmodulin-dependent protein kinase type II subunit alpha (CAMK2A, Homo sapiens, UniProt Q9UQM7)
Sequence of UniProt Q9UQM7 (whole entry, looked up): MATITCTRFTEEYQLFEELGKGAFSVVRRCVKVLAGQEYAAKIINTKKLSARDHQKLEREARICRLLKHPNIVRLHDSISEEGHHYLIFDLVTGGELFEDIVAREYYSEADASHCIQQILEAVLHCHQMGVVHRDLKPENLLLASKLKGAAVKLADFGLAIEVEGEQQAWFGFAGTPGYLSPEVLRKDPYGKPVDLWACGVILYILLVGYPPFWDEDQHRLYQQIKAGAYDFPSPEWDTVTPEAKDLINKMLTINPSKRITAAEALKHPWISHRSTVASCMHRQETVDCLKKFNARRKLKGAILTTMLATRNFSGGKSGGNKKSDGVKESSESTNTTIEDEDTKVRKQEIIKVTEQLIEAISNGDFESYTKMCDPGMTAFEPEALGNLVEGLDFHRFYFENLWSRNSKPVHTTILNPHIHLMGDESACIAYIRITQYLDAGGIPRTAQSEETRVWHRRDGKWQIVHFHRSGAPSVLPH
Observed: enzyme activity
Mode: inhibitor
Concentration: 10 µM
With O=C(O[C@@H]1Cc2c(O)cc(O)cc2O[C@@H]1c1cc(O)c(=O)c2c(O)c(O)cc([C@H]3Oc4cc(O)cc(O)c4C[C@H]3OC(=O)c3cc(O)c(O)c(O)c3)c2c1)c1cc(O)c(O)c(O)c1 the inhibition was -142%.
COc1ccc(C(O)CNC(=O)/C=C/c2ccccc2)cc1 (stereo not drawn) has an inhibition of -27%.
With Cc1ccc2ccc(=O)oc2c1 the inhibition was 1%.
For O=C(O)C/C=C/CC(=O)O, the inhibition was -27%.
With COc1cc2c(=O)c3c(O)c([C@@H]4O[C@H](CO)[C@@H](O)[C@H](O)[C@H]4O[C@@H]4OC[C@](O)(CO)[C@H]4O)c(O)cc3oc2cc1O the inhibition was 7%.

Series 4
SMILES: CC(C)S(=O)(=O)c1ccc2nccc(Nc3ccc4sc(C5CCCC5)nc4c3)c2c1.Cl
Observed: kinase activity
Mode: inhibitor
Concentration: 1 µM
The remaining activity was 99% (Phosphatidylinositol 4-phosphate 3-kinase C2 domain-containing subunit alpha (PIK3C2A, Homo sapiens, UniProt O00443)).
It gave 97% for remaining activity (Serine/threonine-protein kinase MARK1 (MARK1, Homo sapiens, UniProt Q9P0L2)).
Mitogen-activated protein kinase kinase kinase 2 (MAP3K2, Homo sapiens, UniProt Q9Y2U5) — remaining activity: 96%.
It gave 101% for remaining activity (Tyrosine-protein kinase Lyn (LYN, Homo sapiens, UniProt P07948)).
Casein kinase I isoform gamma-1 (CSNK1G1, Homo sapiens, UniProt Q9HCP0) — remaining activity: 97%.
For Misshapen-like kinase 1 (MINK1, Homo sapiens, UniProt Q8N4C8): remaining activity read 95%.
Serine/threonine-protein kinase PAK 1 (PAK1, Homo sapiens, UniProt Q13153) — remaining activity: 82%.

Series 5
Structure (SMILES): C[C@H]1CC[C@H](n2c3cnccc3c3cnc(Nc4ccc5c(n4)CCN(C(=O)CO)C5)nc32)CC1
Observed: cell-free assay
Concentration: 1 µM
The remaining signal was 100% (Receptor-interacting serine/threonine-protein kinase 4 (RIPK4, Homo sapiens, UniProt P57078)).
It gave 83% for remaining signal (Mitogen-activated protein kinase kinase kinase 10 (MAP3K10, Homo sapiens, UniProt Q02779)).
The remaining signal was 1.4% (Dual specificity protein kinase CLK4 (CLK4, Homo sapiens, UniProt Q9HAZ1)).
Phosphatidylinositol 4,5-bisphosphate 3-kinase catalytic subunit alpha isoform (PIK3CA, Homo sapiens, UniProt P42336, H1047Y) — remaining signal: 100%.
It gave 56% for remaining signal (Serine/threonine-protein kinase RIO1 (RIOK1, Homo sapiens, UniProt Q9BRS2)).
Receptor-type tyrosine-protein kinase FLT3 (FLT3, Homo sapiens, UniProt P36888, K663Q) — remaining signal: 1.2%.
The remaining signal was 99% (Epidermal growth factor receptor (EGFR, Homo sapiens, UniProt P00533, G719C)).

For quick reference, copied from above (series 5):
The remaining signal was 1.4% (Dual specificity protein kinase CLK4 (CLK4, Homo sapiens, UniProt Q9HAZ1)).
Phosphatidylinositol 4,5-bisphosphate 3-kinase catalytic subunit alpha isoform (PIK3CA, Homo sapiens, UniProt P42336, H1047Y) — remaining signal: 100%.
The remaining signal was 99% (Epidermal growth factor receptor (EGFR, Homo sapiens, UniProt P00533, G719C)).
It gave 56% for remaining signal (Serine/threonine-protein kinase RIO1 (RIOK1, Homo sapiens, UniProt Q9BRS2)).
It gave 83% for remaining signal (Mitogen-activated protein kinase kinase kinase 10 (MAP3K10, Homo sapiens, UniProt Q02779)).
